Values quoted from earlier work as cited in several papers.
Each line is one published result; not all experiments were run side by side. ± marks the error that the study gave.
lecA: PA-I galactophilic lectin (lecA, Pseudomonas aeruginosa, UniProt Q05097)
UniProt Q05097, sequence (whole entry, looked up): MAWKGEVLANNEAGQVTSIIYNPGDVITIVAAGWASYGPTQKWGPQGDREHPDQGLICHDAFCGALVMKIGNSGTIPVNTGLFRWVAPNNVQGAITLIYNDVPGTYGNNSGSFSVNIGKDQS
UniProt Q9UUB1, sequence (whole entry, looked up): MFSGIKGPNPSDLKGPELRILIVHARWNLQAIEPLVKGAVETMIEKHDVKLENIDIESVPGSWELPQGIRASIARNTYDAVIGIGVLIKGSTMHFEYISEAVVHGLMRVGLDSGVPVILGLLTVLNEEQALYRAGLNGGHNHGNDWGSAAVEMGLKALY
UniProt P9WHE9, sequence (whole entry, looked up): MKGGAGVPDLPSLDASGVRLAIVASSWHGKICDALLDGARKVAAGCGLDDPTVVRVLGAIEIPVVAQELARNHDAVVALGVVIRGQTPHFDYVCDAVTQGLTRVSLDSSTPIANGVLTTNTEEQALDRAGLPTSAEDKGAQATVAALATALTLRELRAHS

CC(C)C1=C(O)C(=O)C2=C(C1=O)[C@H](O)[C@@H](O)[C@H]1C(C)(C)CCC[C@]21C — GI50 (UACC-62): > 30 µM
OC[C@H]1O[C@@H](OCc2cn([C@H]3[C@H](O)[C@@H](O)[C@H](c4cn([C@H]5[C@H](O)[C@@H](O)[C@H](n6cc([C@@H]7O[C@H](CO)[C@@H](n8cc(CO[C@@H]9O[C@H](CO)[C@H](O)[C@H](O)[C@H]9O)nn8)[C@H](O)[C@H]7O)nn6)O[C@@H]5CO)nn4)O[C@@H]3CO)nn2)[C@H](O)[C@@H](O)[C@H]1O — ΔH (lecA; ITC): -11.6 kcal/mol
CN1CCN(c2cc(-c3ccccc3CO)c(N(C)C(=O)C(C)(C)c3cc(C(F)(F)F)cc(C(F)(F)F)c3)cn2)CC1 — Tmax (healthy volunteers, plasma; oral, 450 mg, single dose, netupitant alone): 19.7 h
Nc1c(SC[C@H](O)[C@H](O)[C@H](O)CO)[nH]c(=O)[nH]c1=O — Ks (ribH (Mycobacterium tuberculosis, UniProt P9WHE9); enzyme kinetics; pH 7.0, added: substrate 2 fixed, 1 varied; lower = tighter substrate binding): 30 ± 4 µM
CN1C(=O)[C@@H](Cc2ccc(O)cc2)NC(=O)CNC(=O)[C@H](Cc2ccc3ccccc3c2)NC(=O)[C@H](CCCNC(=N)N)NC(=O)[C@H]1CCCNC(=O)c1ccc(CNC(=O)CN2CCN(CC(=O)O)CCN(CC(=O)O)CCN(CC(=O)O)CC2)cc1 [gallium-68 labelled] — absorbed dose coefficient (PET dosimetry; human patients, spleen): 0.0538 mGy/MBq
O=C(CCCCCCCCCN=C=S)CC(=O)N[C@H]1CCOC1=O — inhibition of elastase B production (Pseudomonas aeruginosa; PAO1; concentration not given): ~50%
C=CC(O)c1ccc(OC)cc1 (stereo not shown) — Km (male rat, lung microsomes): 26 µM
C=CC(=O)N1CCC[C@@H](n2nc(-c3cn(C)c4ccccc34)c3c(N)ncnc32)C1 — kinact/Ki (EGFR (Homo sapiens, UniProt P00533, L858R)): 140000 ± 70000 M⁻¹ s⁻¹
COCCOCCOCCOCCC(=O)NCc1cc(CNC(=O)CCOCCOCCOCCOC)cc(-c2cc3cc4nc(c(OC)c5[nH]c(cc6nc(cc2[nH]3)CC6(C)C)cc5-c2cc(CNC(=O)CCOCCOCCOCCOC)cc(CNC(=O)CCOCCOCCOCCOC)c2)CC4(C)C)c1 — kf^−1 (DMF; room temperature): 16 ns
C=CC(=O)N1CCC[C@@H](n2nc(-c3ccc4ccccc4c3)c3c(N)ncnc32)C1 — kinact/Ki (EGFR (Homo sapiens, UniProt P00533)): 210000 ± 50000 M⁻¹ s⁻¹
CCOC(=O)C(=O)Nc1c(NC[C@H](O)[C@H](O)[C@H](O)CO)[nH]c(=O)[nH]c1=O — kcat (6,7-dimethyl-8-ribityllumazine synthase (rib4, Schizosaccharomyces pombe, UniProt Q9UUB1); enzyme kinetics; pH 7.0): 0.167 s⁻¹
OCCn1cc(CO[C@@H]2O[C@H](CO)[C@H](O)[C@H](O)[C@H]2O)nn1 — ΔH (lecA; ITC): -8.3 kcal/mol
C=CC(OS(=O)(=O)O)c1ccc(OC)cc1 (stereo not shown) — Km (sulfonation, substrate; male rat liver): 63 µM

For quick reference, copied from above:
Nc1c(SC[C@H](O)[C@H](O)[C@H](O)CO)[nH]c(=O)[nH]c1=O — Ks (ribH (Mycobacterium tuberculosis, UniProt P9WHE9); enzyme kinetics; pH 7.0, added: substrate 2 fixed, 1 varied; lower = tighter substrate binding): 30 ± 4 µM
